Published values gathered from unrelated publications.
Every numbered part comes from another study and shows a few of its results, in no order.

Block 1 — technique: RNA Bind-n-Seq; form: RNA; medium: in vitro; concentration: 365 nM; relative to: no-protein control; reading: higher = stronger binding; endpoint: RBNS enrichment (R)
Target: RNA binding protein fox-1 homolog 2, RRM domain, GST-SBP tag (RBFOX2, Homo sapiens, UniProt O43251-10, residues 100-194)
Setting: natural RNA segment, single round, ends assumed
Construct (chain): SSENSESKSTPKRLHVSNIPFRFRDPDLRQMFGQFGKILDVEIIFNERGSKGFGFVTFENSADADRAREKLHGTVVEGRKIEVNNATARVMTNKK
Sequence = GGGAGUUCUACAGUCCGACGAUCUGUUCUAAGUUUUUAAGAAGUUUUAUCUUGUGUAUUUGCAUCAAACAUUUCUUUAUGUGCUAAAUGUUUGCUCUUUAAAAAUGUCUCAGAGUUAGUUACCAGCUUCCUUGUGGAAUUCUCGGGUGCCAA; result = 0.744
Sequence = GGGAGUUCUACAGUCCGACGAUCAGCAUCUGAUAAACGCUGUGGAGACUUAGCCCAACACAAGCUCCAGUGUCUGUAGGAGUCGGCCUCACAAGCUGAUGAAGCAGCUGUACGCCUAGUAGAGCUCGGUGGUGUGGAAUUCUCGGGUGCCAA; result = 0.322
Sequence = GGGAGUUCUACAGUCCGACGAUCAACACUAAAACGAUUUGAGUAGAGGCUGCUGGUCACCUUUUGUGACCUGAGGAAUCCCAGGCCUGUGAGAAAAGCAAAAAUUCACAUUGCAGCACAUGAUGCCAGAAAUAUGGAAUUCUCGGGUGCCAA; result = 0.34
Sequence = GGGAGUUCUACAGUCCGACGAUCUCAAAAAUACUUCAUUCUGCUGCUGUUCAGUUGGCUUUUUAAACCUGUCUGCAGUAGGACACUGAAAACAGCAAGAACUUCGGGGUGAACACCCGCUGAUCCUUUAACAAUGGAAUUCUCGGGUGCCAA; result = 0.359
Sequence = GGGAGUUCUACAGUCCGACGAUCGCCCGCCCGGUGCCUCCCCCUGCUCCUGCAUGGCGGGACGGGCAGCGCCUCCUGCGGCCCCUCCAGUGCUGUCCCUCCGCUGUCUAGCAGCCCUAGGGGCGUGUCAGCCGUGGAAUUCUCGGGUGCCAA; result = 0.796
Sequence = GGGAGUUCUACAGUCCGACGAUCUUCCUGCCACUUGGUCUGACCCUGGGCCUCUUGUCUUUGGCUUGAACAUUAAGCUAUUUAACCCUCAAAGUUGACCAUGCUUCCAGGACCACAGCACACCCAAGGACAUGUGGAAUUCUCGGGUGCCAA; result = 0.484
Sequence = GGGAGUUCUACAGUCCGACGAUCAACGACAGAAGAACAUGGCAUUUUUAUAAAUUAUUUUUUUGAAAUAAAUCUCUGUGUGCCUGGUGGCUUCCCUGUGUGGCAGGGUGUAGGGUGGGAAGAUUUUCCACGUUUGGAAUUCUCGGGUGCCAA; result = 0.828
Sequence = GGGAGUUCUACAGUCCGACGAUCAAUUCAUCAAAUAGAUUGCUCCUAAAUCCAAUUGUUAAAAUUGGAUCAGAAUAAUUAUCACAGGAACUUAAAUGUUAAGCCAUUAGCAUAGAAAAACUGUUCUCAGUUUUUGGAAUUCUCGGGUGCCAA; result = 0.549

Block 2 — technique: protein-binding microarray; form: double-stranded DNA, one strand shown; medium: in vitro; concentration: 2200 nM top; setting: 60-bp whole probe; together with: salmon DNA 0.4 mg/ml; relative to: random background probes; reading: higher = stronger binding; endpoint: fitted relative affinity; all sequences stand within: GCCTAGCAC … GTCTTGATTCGCTTGACGCTGCTG
Target: Interferon regulatory factor 7, full length, phosphomimetic (IRF7, Homo sapiens, UniProt Q92985, residues 1-503, S471D/S472D/S475D/S476D/S477D/S483D/S484D/S487D)
Chain of UniProt Q92985 (whole entry, unmodified, looked up): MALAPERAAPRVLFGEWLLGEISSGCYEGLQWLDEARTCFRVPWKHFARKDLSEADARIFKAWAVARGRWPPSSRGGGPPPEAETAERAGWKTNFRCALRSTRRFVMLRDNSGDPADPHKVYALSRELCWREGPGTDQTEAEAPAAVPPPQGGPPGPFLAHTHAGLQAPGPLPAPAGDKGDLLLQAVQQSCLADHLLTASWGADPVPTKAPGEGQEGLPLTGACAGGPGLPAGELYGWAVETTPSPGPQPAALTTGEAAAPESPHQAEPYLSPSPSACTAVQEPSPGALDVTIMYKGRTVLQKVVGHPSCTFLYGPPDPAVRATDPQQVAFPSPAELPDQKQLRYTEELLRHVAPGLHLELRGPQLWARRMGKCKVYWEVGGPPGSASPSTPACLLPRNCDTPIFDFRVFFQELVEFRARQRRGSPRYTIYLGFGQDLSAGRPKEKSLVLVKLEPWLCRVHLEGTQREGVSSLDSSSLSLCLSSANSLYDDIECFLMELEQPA
Sequence = GACGGTATCGGGTCTCGGGACGTGCTA; result = 0.113 z-score
Sequence = TTAGGCTTCGGGACTGGGTTAGTGCTA; result = -0.54 z-score
Sequence = TTAGGTATCGGTTTCGTTTAGTGCTAG; result = 6.51 z-score
Sequence = TACGGTCTCGGTTTCGGGACGTGCTAG; result = 4.31 z-score
Sequence = GACGATCTCAGTATCGACACGTGCTAG; result = 0.119 z-score
Sequence = GACGGAGTGGGGTTTCGGGACGTGCTA; result = 0.719 z-score
Sequence = ATAGGTATCGGACTGGGTTAGTGCTAG; result = 0.534 z-score
Sequence = TTAGGACTTGGTATCGGTTAGTGCTAG; result = 0.468 z-score
Sequence = GACGAACTTAGACTGGAGACGTGCTAG; result = -0.0746 z-score
Sequence = GACGATTTAAGTATCGAGACGTGCTAG; result = -0.0989 z-score
Sequence = GATTCTTTCGATGCTAAACGAGTGCTA; result = 1.69 z-score
Sequence = TCAGTTTTCTTTTCATTACTGTGCTAG; result = 5.57 z-score
Sequence = GACGGTATCGGACTGGCGACGTGCTAG; result = -0.363 z-score
Sequence = TTAGGTCTCGTTCTCCTTTAGTGCTAG; result = 1.87 z-score
Sequence = TTGTGTCTGGGCTTTTTCCCCGTGCTA; result = 0.134 z-score
Sequence = GACGAAATCGGGTTTCGAGACGTGCTA; result = 1.98 z-score
Sequence = GACTATTCCAGTTTCGAGACGTGCTAG; result = 4.4 z-score
Sequence = GACGGTTCCTGTTTCGGGACGTGCTAG; result = 3.37 z-score
Sequence = TCACTGCTCCTCTTTTTTACTGTGCTA; result = 1.77 z-score

Block 3 — technique: protein binding microarray; form: double-stranded DNA, one strand shown; medium: in vitro; concentration: not given; relative to: not given; reading: higher = stronger binding; endpoint: E-score
Target: Histone acetyltransferase KAT6A, both winged helices, GST fusion (KAT6A, Homo sapiens, UniProt Q92794, residues 1-181)
Setting: 8-mer, flanks averaged, mean of 2 arrays, mostly near background
Residues (chain): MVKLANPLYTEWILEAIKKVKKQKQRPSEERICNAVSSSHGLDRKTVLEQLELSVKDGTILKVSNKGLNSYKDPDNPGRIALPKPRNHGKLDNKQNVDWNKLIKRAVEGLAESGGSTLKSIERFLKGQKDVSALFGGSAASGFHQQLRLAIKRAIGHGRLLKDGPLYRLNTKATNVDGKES
Sequence = CGTTATTA; result = 0.127
Sequence = CAGGATCC; result = -0.144
Sequence = AAACATAT; result = -0.0304
Sequence = TGAGCACA; result = -0.165
Sequence = GCTTGACC; result = 0.0557
Sequence = GGAGGATA; result = -0.219
Sequence = CGCAACGC; result = 0.276
Sequence = AGCCGGCT; result = 0.228
Sequence = GGGATCAA; result = -0.0522
Sequence = CCATAACA; result = -0.0383
Sequence = ATGTAACG; result = 0.0361
Sequence = CAACTGGC; result = -0.142
Sequence = ATAGCAAA; result = -0.0858
Sequence = ACACGACG; result = 0.092
Sequence = TCGTAGAA; result = -0.0827
Sequence = CCTACGAC; result = -0.168
Sequence = AAACAACA; result = -0.151
Sequence = ACTGAGAA; result = -0.012
Sequence = ACTTCGAA; result = -0.167
Sequence = ATCCGCTG; result = 0.0738
Sequence = CTTCCCGA; result = 0.152

Block 4 — technique: RNA Bind-n-Seq; form: RNA; medium: in vitro; concentration: 1 µM; setting: whole 134-nt RNA, ends assumed; together with: 150 mM KCl; relative to: input library; reading: higher = stronger binding; endpoint: log2 enrichment
Target: Ras GTPase-activating protein-binding protein 1, C-terminal RGG region (G3BP1, Homo sapiens, UniProt Q13283)
Chain of UniProt Q13283 (whole entry, looked up): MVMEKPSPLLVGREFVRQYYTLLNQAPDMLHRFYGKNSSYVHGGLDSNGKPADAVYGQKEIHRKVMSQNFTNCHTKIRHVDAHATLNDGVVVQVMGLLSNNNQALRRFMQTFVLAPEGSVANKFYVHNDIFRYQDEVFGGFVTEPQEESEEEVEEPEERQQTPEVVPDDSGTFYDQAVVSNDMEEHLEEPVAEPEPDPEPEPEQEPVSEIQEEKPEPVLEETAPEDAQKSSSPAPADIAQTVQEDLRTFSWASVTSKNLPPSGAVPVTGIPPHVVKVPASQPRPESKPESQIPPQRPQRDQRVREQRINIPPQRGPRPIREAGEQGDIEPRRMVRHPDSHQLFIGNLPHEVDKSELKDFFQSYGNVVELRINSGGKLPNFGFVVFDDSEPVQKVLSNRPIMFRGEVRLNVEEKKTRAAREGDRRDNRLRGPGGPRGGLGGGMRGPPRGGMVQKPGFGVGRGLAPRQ
Sequence = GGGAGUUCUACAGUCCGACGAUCGUCCUGUGCUACACAUCGUAUGUACCGAAUCAAACCCCCAAAUUUUUUUAAACCCAAAAAAGUAUUAUGUUACGCCGUUCGGAUCUGCACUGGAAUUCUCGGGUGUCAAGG; result = -0.677
Sequence = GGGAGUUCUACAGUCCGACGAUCUGUGAGGUGGAUUUUGUUUAUUUUUUUAGCUCAUUUCCAGGGGUGGGAAUUUUUUUUUAAUAUGUGUCAUGAAUAAAGUUGUUUUUGAAAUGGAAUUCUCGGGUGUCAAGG; result = 2.99
Sequence = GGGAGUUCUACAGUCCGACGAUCUGGGAGGUGGAUUUUGUUUAUUUUUUUAGCUCAUUUCCAGGGUUGGGAAUUUUUUUUUAAUAUGUGUCAUGAAUAAAGUUGUUUUUGAAAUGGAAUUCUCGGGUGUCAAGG; result = 3.25
Sequence = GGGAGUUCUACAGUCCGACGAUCACCAUGCAGGUGGUCAUCUUUGGGAAGUGGGGCAAGGGGGGGAUAGGGAGGGGGGUAACACUUUGGGAACAGGUGGUCCCAGGUCGUUUCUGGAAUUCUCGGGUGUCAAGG; result = -1.44
Sequence = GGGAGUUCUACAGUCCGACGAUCUGGCCCUUGUGGCAUGCGGGGAGGAAGAGGUGGCCUCAUGGAUCGUGGUGGUCCCGGUGGAAUGUUCAGAGGUGGCCGUGGUGGAGACAGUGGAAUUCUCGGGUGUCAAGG; result = 1.86
Sequence = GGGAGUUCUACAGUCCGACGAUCUCCUGUGCUACACAUCGUAUGUACCGAAUCGGGGAAAAAAGGAAAAAAGGGAAAAAAGGAAAGUAUUAUGUUACGCCGUUCGGAUCUGCAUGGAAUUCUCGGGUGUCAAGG; result = -1.34
Sequence = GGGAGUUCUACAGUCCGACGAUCUAACUUUAGAGGAGGAUCUGAUGGAUAUGGCAGUGGACGUGGAUUUGGGGACGGCUAUAAUGGGUAUGGAGGAGGACCUGGAGGUGGCAAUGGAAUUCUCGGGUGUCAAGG; result = -0.913
Sequence = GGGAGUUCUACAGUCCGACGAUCAAGUCCUGUGCUACACAUCGUAUGUACCGAAUCGGGUUUGGGUUUUUUUGGGAGGGAAAGUAUUAUGUUACGCCGUUCGGAUCUGCACUUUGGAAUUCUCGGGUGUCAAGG; result = 0.696
Sequence = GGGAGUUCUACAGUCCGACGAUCUGUUGGAGGGACGAUGGUCCGCUCCGGGCAGGACCCUUACGCCCGCAACAAGUUCAACCAGGUGGAGAGUGAUAAGCUUCGAAUGGACAGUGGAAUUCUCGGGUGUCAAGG; result = -2.04
